Results collected from several papers.
Lines come from different studies, so protocols differ.
SALL4 full length isoform A: Sal-like protein 4, full length isoform A (SALL4, Homo sapiens, UniProt Q9UJQ4, residues 1-1053)
Chain of UniProt Q9UJQ4 (whole entry, looked up): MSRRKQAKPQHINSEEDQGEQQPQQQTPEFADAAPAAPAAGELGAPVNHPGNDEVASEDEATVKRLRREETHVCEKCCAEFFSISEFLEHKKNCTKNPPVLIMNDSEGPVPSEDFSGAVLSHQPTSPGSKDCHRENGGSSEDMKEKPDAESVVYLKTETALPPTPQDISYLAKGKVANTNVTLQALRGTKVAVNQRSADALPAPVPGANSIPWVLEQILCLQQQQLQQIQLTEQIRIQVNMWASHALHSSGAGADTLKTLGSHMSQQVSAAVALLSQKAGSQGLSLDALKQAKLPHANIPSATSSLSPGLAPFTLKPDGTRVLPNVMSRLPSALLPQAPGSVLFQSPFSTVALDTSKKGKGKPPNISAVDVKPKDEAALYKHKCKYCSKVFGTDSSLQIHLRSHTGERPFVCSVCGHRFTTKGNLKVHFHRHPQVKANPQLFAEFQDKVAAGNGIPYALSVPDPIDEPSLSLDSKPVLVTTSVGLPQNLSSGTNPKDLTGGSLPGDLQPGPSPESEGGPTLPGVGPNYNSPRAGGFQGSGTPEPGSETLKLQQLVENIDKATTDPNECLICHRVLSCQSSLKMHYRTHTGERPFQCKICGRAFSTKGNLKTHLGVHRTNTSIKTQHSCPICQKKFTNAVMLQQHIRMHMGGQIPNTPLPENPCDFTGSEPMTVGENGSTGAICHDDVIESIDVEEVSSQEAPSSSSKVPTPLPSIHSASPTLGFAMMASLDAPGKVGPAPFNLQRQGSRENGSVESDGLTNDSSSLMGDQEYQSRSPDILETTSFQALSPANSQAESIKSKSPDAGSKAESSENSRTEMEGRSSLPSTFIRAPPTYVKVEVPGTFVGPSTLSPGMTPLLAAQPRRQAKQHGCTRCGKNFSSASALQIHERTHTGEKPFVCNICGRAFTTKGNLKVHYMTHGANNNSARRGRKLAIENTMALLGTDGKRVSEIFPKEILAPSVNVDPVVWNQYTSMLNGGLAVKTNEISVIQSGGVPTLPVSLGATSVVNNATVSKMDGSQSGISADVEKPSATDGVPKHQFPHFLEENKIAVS
Chain of UniProt P17106 (whole entry, looked up): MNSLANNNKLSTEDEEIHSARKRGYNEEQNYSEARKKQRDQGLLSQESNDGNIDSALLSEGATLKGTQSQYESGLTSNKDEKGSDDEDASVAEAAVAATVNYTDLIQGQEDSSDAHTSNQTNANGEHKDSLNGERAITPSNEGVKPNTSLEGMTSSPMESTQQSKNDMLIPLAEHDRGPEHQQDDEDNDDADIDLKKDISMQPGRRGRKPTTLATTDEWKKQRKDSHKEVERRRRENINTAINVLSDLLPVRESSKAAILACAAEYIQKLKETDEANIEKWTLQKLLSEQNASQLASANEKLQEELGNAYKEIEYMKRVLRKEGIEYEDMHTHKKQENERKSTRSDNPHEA

Molecule | target | test | test system | conditions | scale | quantity | result
AGTATTAG | SALL4 full length isoform A | universal PBM | double-stranded DNA, one strand shown, in vitro | 600 nM, 8-mer, flanks averaged, mean of replicates | higher = stronger binding | E-score | 0.241
GCCTAGCACGACGGTATTGGACTGGGGACGTGCTAGGTCTTGATTCGCTTGACGCTGCTG | Interferon regulatory factor 5, full length, phosphomimetic (IRF5, Homo sapiens, UniProt Q13568-2, residues 1-514, K96S/S451D/S453D/S456D/S462D) | protein-binding microarray | double-stranded DNA, one strand shown, in vitro | 250 nM, 60-bp whole probe, together with: salmon DNA 0.4 mg/ml | relative to: random background probes, higher = stronger binding | log fluorescence | -0.238 z-score
PhoQ, residues 284 288 289 292 302 303 TASMAF | PhoP, residues 12 14 15 18 19 IQSYL (Escherichia coli, UniProt P23836) | Sort-seq, measured: YFP reporter | E. coli | PhoQ-PhoP variant library, together with: 10 µM Mg2+ | relative to: high Mg2+ state, higher = stronger signaling | fold induction | 1.07
AGATTTCC | Histone acetyltransferase KAT6A, winged helix 2, GST fusion (KAT6A, Homo sapiens, UniProt Q92794, residues 85-181) | protein binding microarray | double-stranded DNA, one strand shown, in vitro | not given, 8-mer, flanks averaged, mean of 2 arrays, mostly near background | relative to: not given, higher = stronger binding | E-score | -0.0284
CGGGGTTAAGTTTGTCACATAACTTGCTTGCAGCAGGTCTTGATTCGCTTGACGCTGCTG | Centromere-binding protein 1, full length, His-tagged (CBF1, Saccharomyces cerevisiae, UniProt P17106, residues 1-351) | competition protein-binding microarray | double-stranded DNA, one strand shown, in vitro | 2 µM, whole 60-bp probe, lowest competitor level, together with: Pho4 competitor, 0.05 µM | higher = stronger binding | fluorescence intensity | 63.7 a.u.
CGATTTTC | SALL4 full length isoform A | universal PBM | double-stranded DNA, one strand shown, in vitro | 600 nM, 8-mer, flanks averaged, mean of replicates | higher = stronger binding | E-score | 0.133
GCCTAGCACTTAGGACTGGGTCTAGGTTAGTGCTAGGTCTTGATTCGCTTGACGCTGCTG | Interferon regulatory factor 5, full length, phosphomimetic (IRF5, Homo sapiens, UniProt Q13568-2, residues 1-514, S451D/S453D/S456D/S462D) | protein-binding microarray | double-stranded DNA, one strand shown, in vitro | 940 nM top, 60-bp whole probe, together with: salmon DNA 0.4 mg/ml | relative to: random background probes, higher = stronger binding | fitted relative affinity | -0.669 z-score

Repeated from above:
Molecule | target | test | test system | conditions | scale | quantity | result
AGTATTAG | SALL4 full length isoform A | universal PBM | double-stranded DNA, one strand shown, in vitro | 600 nM, 8-mer, flanks averaged, mean of replicates | higher = stronger binding | E-score | 0.241
